# Assay results collected from several papers.
# Every numbered part comes from another study and shows a few of its results, in no order.
# Sequence of UniProt Q12866 (whole entry, looked up): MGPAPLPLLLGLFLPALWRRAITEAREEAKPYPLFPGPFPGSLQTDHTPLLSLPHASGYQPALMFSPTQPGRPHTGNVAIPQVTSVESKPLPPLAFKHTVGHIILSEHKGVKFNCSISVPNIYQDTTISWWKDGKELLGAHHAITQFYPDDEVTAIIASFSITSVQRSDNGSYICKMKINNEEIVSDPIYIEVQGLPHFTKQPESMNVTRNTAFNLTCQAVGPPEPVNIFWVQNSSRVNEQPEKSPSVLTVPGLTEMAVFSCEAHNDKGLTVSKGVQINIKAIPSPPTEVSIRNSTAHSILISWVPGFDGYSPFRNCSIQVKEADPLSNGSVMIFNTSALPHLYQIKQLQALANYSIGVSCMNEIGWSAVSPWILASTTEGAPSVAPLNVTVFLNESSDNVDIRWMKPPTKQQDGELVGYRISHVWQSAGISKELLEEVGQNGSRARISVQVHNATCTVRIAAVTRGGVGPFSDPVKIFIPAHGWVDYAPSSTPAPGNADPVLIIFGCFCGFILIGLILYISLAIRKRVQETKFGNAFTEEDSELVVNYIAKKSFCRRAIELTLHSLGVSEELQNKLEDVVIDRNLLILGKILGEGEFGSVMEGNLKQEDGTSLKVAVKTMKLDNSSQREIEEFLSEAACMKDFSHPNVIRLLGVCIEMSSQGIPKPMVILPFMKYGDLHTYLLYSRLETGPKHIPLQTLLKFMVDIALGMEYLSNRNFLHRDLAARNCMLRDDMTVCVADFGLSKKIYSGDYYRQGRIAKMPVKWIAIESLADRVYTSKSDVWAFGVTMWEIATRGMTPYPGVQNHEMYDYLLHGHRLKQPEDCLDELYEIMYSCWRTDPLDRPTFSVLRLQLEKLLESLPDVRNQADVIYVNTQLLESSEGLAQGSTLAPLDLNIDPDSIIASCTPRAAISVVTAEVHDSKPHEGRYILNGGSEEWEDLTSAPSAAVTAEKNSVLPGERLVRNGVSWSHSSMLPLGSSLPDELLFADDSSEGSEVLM
# Sequence of UniProt P11309 (whole entry, looked up): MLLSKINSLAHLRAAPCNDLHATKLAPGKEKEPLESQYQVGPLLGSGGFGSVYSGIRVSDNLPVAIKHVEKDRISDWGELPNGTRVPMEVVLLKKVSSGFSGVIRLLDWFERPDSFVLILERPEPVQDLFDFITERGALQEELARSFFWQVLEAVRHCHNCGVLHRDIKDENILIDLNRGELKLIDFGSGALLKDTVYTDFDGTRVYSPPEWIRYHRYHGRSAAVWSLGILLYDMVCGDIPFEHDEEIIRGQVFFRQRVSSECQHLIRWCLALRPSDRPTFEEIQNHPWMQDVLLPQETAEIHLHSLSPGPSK
# Sequence of UniProt Q8NFD2 (whole entry, looked up): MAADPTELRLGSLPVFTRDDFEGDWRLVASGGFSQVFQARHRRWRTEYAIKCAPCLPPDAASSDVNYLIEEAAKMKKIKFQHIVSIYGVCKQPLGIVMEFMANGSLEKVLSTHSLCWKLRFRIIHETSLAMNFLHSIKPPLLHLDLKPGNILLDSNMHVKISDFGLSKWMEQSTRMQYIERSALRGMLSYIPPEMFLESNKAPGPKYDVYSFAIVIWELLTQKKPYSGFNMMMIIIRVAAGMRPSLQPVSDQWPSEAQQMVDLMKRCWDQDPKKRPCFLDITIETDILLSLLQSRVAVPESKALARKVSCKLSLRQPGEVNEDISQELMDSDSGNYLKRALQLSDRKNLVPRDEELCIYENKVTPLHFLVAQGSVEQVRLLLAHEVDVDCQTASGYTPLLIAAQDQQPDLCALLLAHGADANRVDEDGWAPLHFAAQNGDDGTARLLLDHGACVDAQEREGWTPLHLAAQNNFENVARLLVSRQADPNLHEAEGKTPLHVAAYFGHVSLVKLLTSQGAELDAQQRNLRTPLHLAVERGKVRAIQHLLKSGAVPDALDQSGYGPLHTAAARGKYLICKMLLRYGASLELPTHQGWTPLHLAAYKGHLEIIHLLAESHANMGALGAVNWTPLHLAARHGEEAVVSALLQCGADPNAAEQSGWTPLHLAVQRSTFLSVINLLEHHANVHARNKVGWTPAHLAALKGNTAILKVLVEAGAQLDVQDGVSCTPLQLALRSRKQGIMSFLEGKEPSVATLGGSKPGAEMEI
# Sequence of UniProt P23458 (whole entry, looked up): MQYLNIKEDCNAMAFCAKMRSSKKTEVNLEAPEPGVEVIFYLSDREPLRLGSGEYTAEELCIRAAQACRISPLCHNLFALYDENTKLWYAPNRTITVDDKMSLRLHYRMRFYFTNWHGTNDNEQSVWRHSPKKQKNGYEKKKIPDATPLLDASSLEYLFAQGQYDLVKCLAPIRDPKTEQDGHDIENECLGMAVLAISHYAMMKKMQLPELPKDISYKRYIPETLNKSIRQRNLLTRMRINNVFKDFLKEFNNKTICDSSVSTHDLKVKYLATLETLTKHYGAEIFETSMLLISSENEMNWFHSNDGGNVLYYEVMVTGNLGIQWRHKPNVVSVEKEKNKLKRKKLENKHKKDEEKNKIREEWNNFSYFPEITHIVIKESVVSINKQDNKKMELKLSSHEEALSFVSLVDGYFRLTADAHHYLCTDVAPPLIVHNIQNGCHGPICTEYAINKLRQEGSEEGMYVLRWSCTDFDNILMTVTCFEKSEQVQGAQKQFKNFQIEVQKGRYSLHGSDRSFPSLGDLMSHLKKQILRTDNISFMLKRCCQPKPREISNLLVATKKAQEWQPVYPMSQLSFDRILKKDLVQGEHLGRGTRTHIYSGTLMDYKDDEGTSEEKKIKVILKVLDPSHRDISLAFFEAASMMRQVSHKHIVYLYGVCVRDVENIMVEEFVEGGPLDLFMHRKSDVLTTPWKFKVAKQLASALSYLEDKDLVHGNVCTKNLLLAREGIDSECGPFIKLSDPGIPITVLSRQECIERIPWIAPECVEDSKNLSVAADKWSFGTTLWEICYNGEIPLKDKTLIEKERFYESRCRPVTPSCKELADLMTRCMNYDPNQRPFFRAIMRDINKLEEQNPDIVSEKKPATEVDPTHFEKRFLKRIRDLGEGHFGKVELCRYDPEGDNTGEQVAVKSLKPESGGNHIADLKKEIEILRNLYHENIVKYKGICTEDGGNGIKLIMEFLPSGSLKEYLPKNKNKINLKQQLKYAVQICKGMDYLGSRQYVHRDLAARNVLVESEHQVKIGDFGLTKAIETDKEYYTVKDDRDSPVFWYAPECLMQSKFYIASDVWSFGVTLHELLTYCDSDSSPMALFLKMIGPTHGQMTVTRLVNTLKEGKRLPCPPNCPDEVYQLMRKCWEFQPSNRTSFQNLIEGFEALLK
# Sequence of UniProt P50613 (whole entry, looked up): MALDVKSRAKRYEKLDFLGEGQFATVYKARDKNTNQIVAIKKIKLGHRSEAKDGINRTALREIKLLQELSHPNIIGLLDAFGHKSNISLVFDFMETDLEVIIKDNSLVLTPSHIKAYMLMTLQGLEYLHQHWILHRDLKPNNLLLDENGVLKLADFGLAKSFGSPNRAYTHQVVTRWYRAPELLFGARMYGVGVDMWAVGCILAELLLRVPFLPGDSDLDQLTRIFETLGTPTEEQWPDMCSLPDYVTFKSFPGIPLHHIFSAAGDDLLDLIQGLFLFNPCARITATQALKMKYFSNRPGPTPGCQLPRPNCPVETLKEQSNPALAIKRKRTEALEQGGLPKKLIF

# Study 1 — effect on: enzyme activity; mode: inhibitor; tested at: 0.5 µM; baseline: control
# Target: Serine/threonine-protein kinase TAO1 (TAOK1, Homo sapiens, UniProt Q7L7X3)
# Sequence of UniProt Q7L7X3 (whole entry, looked up): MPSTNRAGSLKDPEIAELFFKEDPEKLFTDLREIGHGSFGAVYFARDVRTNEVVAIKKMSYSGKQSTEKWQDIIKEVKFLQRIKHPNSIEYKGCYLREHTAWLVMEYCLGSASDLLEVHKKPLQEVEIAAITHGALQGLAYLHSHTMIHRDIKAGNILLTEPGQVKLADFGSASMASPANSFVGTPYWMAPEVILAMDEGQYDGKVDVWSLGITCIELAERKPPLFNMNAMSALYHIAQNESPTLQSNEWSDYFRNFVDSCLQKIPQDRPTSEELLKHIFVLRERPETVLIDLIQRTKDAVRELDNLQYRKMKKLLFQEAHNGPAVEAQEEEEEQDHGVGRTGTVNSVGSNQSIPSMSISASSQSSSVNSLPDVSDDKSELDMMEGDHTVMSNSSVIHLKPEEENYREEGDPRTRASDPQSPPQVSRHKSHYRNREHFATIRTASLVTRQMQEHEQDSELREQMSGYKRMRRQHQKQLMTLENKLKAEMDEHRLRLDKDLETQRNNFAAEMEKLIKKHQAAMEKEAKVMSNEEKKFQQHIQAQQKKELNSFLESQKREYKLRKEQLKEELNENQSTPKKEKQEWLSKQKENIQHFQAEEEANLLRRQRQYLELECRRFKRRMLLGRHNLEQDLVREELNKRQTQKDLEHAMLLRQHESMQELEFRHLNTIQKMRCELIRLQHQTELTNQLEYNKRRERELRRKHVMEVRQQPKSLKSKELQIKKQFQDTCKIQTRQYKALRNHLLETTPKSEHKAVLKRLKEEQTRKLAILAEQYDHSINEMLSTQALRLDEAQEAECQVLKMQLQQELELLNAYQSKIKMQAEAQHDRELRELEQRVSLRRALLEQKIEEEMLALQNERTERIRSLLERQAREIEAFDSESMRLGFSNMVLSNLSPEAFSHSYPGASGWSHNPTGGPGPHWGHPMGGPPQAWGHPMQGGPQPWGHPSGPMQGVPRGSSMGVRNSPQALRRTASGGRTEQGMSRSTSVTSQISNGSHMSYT
Structure (SMILES),remaining activity [%]
O=c1cc(N2CCOCC2)oc2c(-c3ccccc3)cccc12,86.4
O=C1NC(=O)c2c1c1c3ccccc3[nH]c1c1[nH]c3cc(Br)ccc3c21,68.4
CN(C)S(=O)(=O)c1ccc2c(c1)/C(=C/c1cc3c([nH]1)CCCC3)C(=O)N2,85.8
Cc1cc(Nc2cc(N3CCN(C)CC3)nc(Sc3ccc(NC(=O)C4CC4)cc3)n2)[nH]n1,44.6
O=Nc1c(-c2c(O)[nH]c3cc(Br)ccc23)[nH]c2ccccc12,98.5
O=C1Cc2c([nH]c3ccc(Br)cc23)-c2ccccc2N1,99.4
O=C1NC(=O)c2c1c1c3ccccc3[nH]c1n1cncc21,135
CCCNC(=O)Nc1ccc(Oc2ncnc3cc(OC)c(OC)cc23)cc1Cl,92.2
COc1cccc(-c2cc(=O)c3ccccc3o2)c1N,77.9
N#Cc1cnc2cnc(NCc3cccnc3)cc2c1Nc1ccc(F)c(Cl)c1,89.9
Oc1cccc(-c2nc(N3CCOCC3)c3oc4ncccc4c3n2)c1,91.6
CCCCc1c(-c2ccc(OC)cc2)[nH]c2nccnc12,87
c1ccc2c(-c3ccncc3)c[nH]c2c1,88.4
COc1ccc(COc2ccc(Cc3cnc(N)nc3N)cc2OC)cc1,110
Cc1ccc(S(=O)(=O)/C=C/C#N)cc1,96.5
COc1ccc2c(c1)c(C1=C(c3c[nH]c4ccccc34)C(=O)NC1=O)cn2CCCN(C)C,99.5
c1ccc(-c2n[nH]c3c2oc2ccccc23)cc1,121
O=C1Nc2ccc(Br)cc2/C1=C/c1cc2c([nH]1)CCCC2,92.3
O=C1Nc2ccccc2/C1=C\c1c(Cl)[nH]c2ccccc12,100
CN1CCN(c2ccc3nc(-c4c(N)c5c(F)cccc5[nH]c4=O)[nH]c3c2)CC1,98.4
O=C(c1cc2cc(O)ccc2[nH]1)c1cc2cc(O)ccc2[nH]1,85.6

# Study 2 — effect on: enzyme activity; mode: inhibitor; tested at: 10 µM
# Target: Calcium/calmodulin-dependent protein kinase type II subunit alpha (CAMK2A, Homo sapiens, UniProt Q9UQM7)
# Sequence of UniProt Q9UQM7 (whole entry, looked up): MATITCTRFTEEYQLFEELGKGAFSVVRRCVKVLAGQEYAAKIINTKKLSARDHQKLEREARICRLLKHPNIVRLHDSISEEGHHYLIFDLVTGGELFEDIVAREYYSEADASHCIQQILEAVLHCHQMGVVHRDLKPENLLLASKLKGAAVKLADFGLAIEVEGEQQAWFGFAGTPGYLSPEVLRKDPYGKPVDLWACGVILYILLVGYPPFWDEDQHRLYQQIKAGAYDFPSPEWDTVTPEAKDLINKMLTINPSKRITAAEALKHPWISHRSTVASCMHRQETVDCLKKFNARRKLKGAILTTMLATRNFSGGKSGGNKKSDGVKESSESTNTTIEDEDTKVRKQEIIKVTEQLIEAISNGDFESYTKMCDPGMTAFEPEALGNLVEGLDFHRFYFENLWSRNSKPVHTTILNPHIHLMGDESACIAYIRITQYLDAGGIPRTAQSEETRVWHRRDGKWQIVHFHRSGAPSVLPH
Structure (SMILES),inhibition
CC1(C)[C@@H](O)CC[C@]2(C)[C@H]3C(=O)C=C4[C@@H]5C[C@@](C)(C(=O)O)CC[C@]5(C)CC[C@@]4(C)[C@]3(C)CC[C@@H]12,28%
Cn1cc(C(=O)O)ccc1=O,-26%
COC(=O)c1ccc(O)cn1,12%
CC(C)=C[C@H]1C[C@](C)(O)[C@@H]2[C@H]3CC[C@@H]4[C@@]5(C)CC[C@H](O[C@@H]6OC[C@H](O)[C@H](O[C@@H]7O[C@H](CO[C@@H]8O[C@H](CO)[C@@H](O)[C@H](O)[C@H]8O)[C@@H](O)[C@H](O)[C@H]7O[C@@H]7OC[C@@H](O)[C@H](O)[C@H]7O)[C@H]6O[C@@H]6O[C@@H](C)[C@H](O)[C@@H](O)[C@H]6O)C(C)(C)[C@@H]5CC[C@@]4(C)[C@@]34CO[C@@]2(C4)O1,-14%
Oc1cccnc1,-35%
COc1cc(C=O)ccc1O[C@@H]1O[C@H](CO)[C@@H](O)[C@H](O)[C@H]1O,-16%
CC[C@H](N)C(=O)O,24%
COC(=O)CC(O)(CC(=O)O)C(=O)OC (centres unmarked),-19%
COC(=S)NCc1ccc(O[C@@H]2O[C@@H](C)[C@H](O)[C@@H](O)[C@H]2O)cc1,-6%
CCCS(=O)(=O)Nc1ccc(F)c(C(=O)c2c[nH]c3ncc(-c4ccc(Cl)cc4)cc23)c1F,-5%
O=C(O)c1ccc(O)cc1,3%
NC(=O)N1c2ccccc2CC(=O)c2ccccc21,2%
C[C@@H]1O[C@@H](O[C@@H]2C(=O)c3c(O)cc(O)cc3O[C@H]2c2cc(O)cc(O)c2)[C@H](O)[C@H](O)[C@H]1O,-12%
C1=C/COCc2cc(ccc2OCCN2CCCC2)Nc2nccc(n2)-c2cccc(c2)COC/1,-3%

# Study 3 — cell line: HaCaT; tested at: 100 µM; time: 18 h
Compound,viability
COC(=O)[C@@H]1CC2=CC(=O)CC[C@]2(C)[C@@]23O[C@@H]2C[C@@]2(C)[C@@H](CC[C@@]24CCC(=O)O4)[C@H]13,117%
CC1(C)O[C@@H]2C[C@H]3[C@@H]4CCC5=CC(=O)C=C[C@]5(C)[C@H]4[C@@H](O)C[C@]3(C)[C@]2(C(=O)CO)O1,96.6%
CNC(=O)c1c(C)oc2cc(Oc3ncnc4cc(OC)c(OC)cc34)ccc12,100%
CN(Cc1ccc(C(C)(C)C)cc1)Cc1cccc2ccccc12,43.2%
CN1CCc2nc(C(=O)N[C@@H]3C[C@@H](C(=O)N(C)C)CC[C@@H]3NC(=O)C(=O)Nc3ccc(Cl)cn3)sc2C1,103%
COc1cc(C(=O)N2CCOCC2)cc(OC)c1OC,115%
CN/C(=N/CCSCc1nc[nH]c1C)NC#N,110%
[H]/N=C(\N/C(=N/[H])NCCCCCCNC(=N)NC(=N)Nc1ccc(Cl)cc1)Nc1ccc(Cl)cc1,19.2%
CO[C@@]1(NC(=O)CSCC#N)C(=O)N2C(C(=O)O)=C(CSc3nnnn3C)CS[C@@H]21,93.9%
O=C(/C=C/c1ccc(O)cc1)c1ccc(O)cc1O,30.9%
CC(=O)Oc1cccc2c1C(=O)c1c(OC(C)=O)cc(C(=O)O)cc1C2=O,86.4%
O=C(c1ccc(F)cc1)C1CCN(CCn2c(=O)[nH]c3ccccc3c2=O)CC1,88.9%
O=C(O)c1cc(=O)[nH]c(=O)[nH]1,112%
CCCCCOC(=O)Nc1nc(=O)n([C@@H]2O[C@H](C)[C@@H](O)[C@H]2O)cc1F,99.1%
CC(C)[N+](C)(CCOC(=O)C1c2ccccc2Oc2ccccc21)C(C)C,110%
O=C(O)COC(=O)Cc1ccccc1Nc1c(Cl)cccc1Cl,94.5%
CCCNS(=O)(=O)Nc1ncnc(OCCOc2ncc(Br)cn2)c1-c1ccc(Br)cc1,84.3%
CC1CC(OC(=O)C(O)c2ccccc2)CC(C)(C)C1 (centres unmarked),20.1%
Nc1ccc(S(=O)(=O)NC(=O)c2ccccc2)cc1,90.7%
C=CC1=C(C(=O)O)N2C(=O)[C@@H](NC(=O)/C(=N\OCC(=O)O)c3csc(N)n3)[C@H]2SC1,111%

# Study 4 — technique: competition with immobilised ligand; tested at: 1 µM
# SMILES: CCOCCn1cc(C(=O)Nc2ccc(-n3nc(-c4cccnc4)cc3C(F)(F)F)cn2)ccc1=O
target,effect on,remaining binding [%]
"MAPK3 (Homo sapiens, UniProt P27361)",cell-free assay,100
"Ribosomal protein S6 kinase alpha-5, C-terminal kinase domain (RPS6KA5, Homo sapiens, UniProt O75582)",cell-free assay,63
"STK35 (Homo sapiens, UniProt Q8TDR2)",cell-free assay,94
"PRKACA (Homo sapiens, UniProt P17612)",cell-free assay,92
"CSNK1G2 (Homo sapiens, UniProt P78368)",cell-free assay,100
"FLT3 (Homo sapiens, UniProt P36888, N841I)",cell-free assay,92
"PIM1 (Homo sapiens, UniProt P11309)",cell-free assay,100
"Tyrosine-protein kinase JAK1, JH2 (JAK1, Homo sapiens, UniProt P23458)",cell-free assay,37
"BMPR1A (Homo sapiens, UniProt P36894)",binding,70
"Tyrosine-protein kinase ABL1, non-phosphorylated (ABL1, Homo sapiens, UniProt P00519, T315I)",cell-free assay,96
"MERTK (Homo sapiens, UniProt Q12866)",cell-free assay,83
"EPHB6 (Homo sapiens, UniProt O15197)",cell-free assay,94
"RIPK2 (Homo sapiens, UniProt O43353)",cell-free assay,71
"CHEK1 (Homo sapiens, UniProt O14757)",cell-free assay,76
"BRAF (Homo sapiens, UniProt P15056)",cell-free assay,95
"CDK7 (Homo sapiens, UniProt P50613)",cell-free assay,88
"ANKK1 (Homo sapiens, UniProt Q8NFD2)",cell-free assay,57
"PNCK (Homo sapiens, UniProt Q6P2M8)",cell-free assay,79
"CSNK2A1 (Homo sapiens, UniProt P68400)",cell-free assay,70
"PTK2B (Homo sapiens, UniProt Q14289)",cell-free assay,100
"CSNK1G1 (Homo sapiens, UniProt Q9HCP0)",cell-free assay,100
"PIK3CA (Homo sapiens, UniProt P42336, E545A)",cell-free assay,100
"CSF1R (Homo sapiens, UniProt P07333)",cell-free assay,100
"SYK (Homo sapiens, UniProt P43405)",cell-free assay,100
"TYRO3 (Homo sapiens, UniProt Q06418)",cell-free assay,0
